Results collected from several papers.
A part holds a random share of what one study measured.

Sample 1
Target: Ras GTPase-activating protein-binding protein 1, full length (G3BP1, Homo sapiens, UniProt Q13283)
UniProt Q13283, sequence (whole entry, looked up): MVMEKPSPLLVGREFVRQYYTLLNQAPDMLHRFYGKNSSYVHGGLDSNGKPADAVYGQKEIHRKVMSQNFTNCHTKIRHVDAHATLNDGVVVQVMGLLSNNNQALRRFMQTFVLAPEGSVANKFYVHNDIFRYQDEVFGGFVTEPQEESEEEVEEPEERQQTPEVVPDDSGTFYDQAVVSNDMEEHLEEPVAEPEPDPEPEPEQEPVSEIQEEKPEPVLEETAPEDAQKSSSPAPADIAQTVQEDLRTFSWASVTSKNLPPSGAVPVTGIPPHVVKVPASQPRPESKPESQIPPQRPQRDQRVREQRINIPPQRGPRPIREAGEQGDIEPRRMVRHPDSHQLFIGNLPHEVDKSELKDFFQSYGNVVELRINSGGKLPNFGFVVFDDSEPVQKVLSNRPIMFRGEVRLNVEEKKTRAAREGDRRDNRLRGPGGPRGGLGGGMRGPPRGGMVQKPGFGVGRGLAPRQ
Technique: RNA Bind-n-Seq
Form: RNA
Sample: in vitro
Concentration: 200 nM
Setting: whole 134-nt RNA, ends assumed
Added: 150 mM KCl
Relative to: input library
Reading: higher = stronger binding
Quantity: log2 enrichment
Constant ends, left off below: GGGAGUUCUACAGUCCGACGAUC … UGGAAUUCUCGGGUGUCAAGG
Strand = AGUCCUGUGCUACACAUCGUAUGUACCGAAUCGGGUUUUUGGUUUUUGGGUUUUUGGGAAAGUAUUAUGUUACGCCGUUCGGAUCUGCAC; value = -1.05
Strand = CAAGUCCUGUGCUACACAUCGUAUGUACCGAAUCGGUUUGGGGUUUGGUUUGGGGAAAGUAUUAUGUUACGCCGUUCGGAUCUGCACUUC; value = -0.321
Strand = AAGGCACGUAAGUUUAAGCUUUUUUUUUUUUUAAGUUAAUGGGAAAAAUUUGAGACGCAAUACCAAUACUUAGGAUUUUGGUCUUGGUGU; value = -0.56
Strand = GUCCUGUGCUACACAUCGUAUGUACCGAAUCGGUUUUUUGGGUUUUUUGGUUUUUUGGAAAGUAUUAUGUUACGCCGUUCGGAUCUGCAC; value = -1.08
Strand = CGGCCCUGGUGGCAUGCGGGGAGGAAGAGGUGGCCUCAUGGAUCGUGGUGGUCCCGGUGGAAUGUUCAGAGGUGGCCGUGGUGGAGACAG; value = 0.189
Strand = AAGUCCUGUGCUACACAUCGUAUGUACCGAAUCGGGAAAGGGUUUUUUUGGGAGGGAAAGUAUUAUGUUACGCCGUUCGGAUCUGCACUU; value = 0.2
Strand = UGGCCCUGGUGGCAUGCGGGGAGGAAGAGGUGGCCUCAUGGAUCGUGGUGUUCCCGGUGGAAUGUUCAGAGGUGGCCGUGGUGGAGACAG; value = 0.378
Strand = CCUCAAGUCCUGUGCUACACAUCGUAUGUACCGAAUCGGUGGGUGGGGUGGGGAAAGUAUUAUGUUACGCCGUUCGGAUCUGCACUUCCA; value = 0.854
Strand = UCCUGUGCUACACAUCGUAUGUACCGAAUCAAACCCCCCCAAAUUUUUAAACCCCCAAAAAAGUAUUAUGUUACGCCGUUCGGAUCUGCA; value = 0.00412
Strand = UCAAGUCCUGUGCUACACAUCGUAUGUACCGAAUCGGGGAGGGGAGGGGAGGGGAAAGUAUUAUGUUACGCCGUUCGGAUCUGCACUUCC; value = 1.55

Sample 2
Target: POU, POU domain (Salpingoeca helianthica)
Technique: Spec-seq
Form: double-stranded DNA, one strand shown
Sample: in vitro
Concentration: not given
Setting: whole probe, mean of replicates
Relative to: not given
Reading: lower = stronger binding
Quantity: relative binding energy
Constant ends, left off below: GAGTCGTCTCGTCAGCAC … CCGTAGAGCACTCAGGTC
Residues (chain): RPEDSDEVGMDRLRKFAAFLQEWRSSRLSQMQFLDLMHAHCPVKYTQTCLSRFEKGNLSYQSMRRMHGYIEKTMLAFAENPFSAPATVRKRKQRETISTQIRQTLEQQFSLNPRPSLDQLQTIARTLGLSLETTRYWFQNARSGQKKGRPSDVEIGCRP
Strand = ATACGCAT; value = 1.21 ln ratio
Strand = AGCCTAAT; value = 0.893 ln ratio
Strand = ATGCGGGG; value = 1.49 ln ratio
Strand = AAACTAAT; value = 0.285 ln ratio
Strand = ACGGTAAT; value = 0.768 ln ratio
Strand = ATGAGGAT; value = 1.33 ln ratio
Strand = AATTTAAT; value = -0.432 ln ratio
Strand = ATGCATCA; value = 1.29 ln ratio
Strand = ATGCTTGG; value = 1.52 ln ratio
Strand = ATGCCGTA; value = 1.17 ln ratio
Strand = ATGCCACA; value = 1.2 ln ratio
Strand = ATGCTGCT; value = 1.53 ln ratio
Strand = GACTTAAT; value = 0.111 ln ratio
Strand = ATGCATAA; value = 0.479 ln ratio
Strand = ATATGGAT; value = 1.45 ln ratio
Strand = ATTAAAAT; value = 0.0196 ln ratio
Strand = TAAATAAT; value = -0.678 ln ratio
Strand = GCCCTAAT; value = 0.594 ln ratio
Strand = ATAGTGAT; value = 1.01 ln ratio
Strand = CCAGTAAT; value = 0.766 ln ratio
Strand = ATGCAGGT; value = 1.28 ln ratio
Strand = GGAGTAAT; value = 0.235 ln ratio
Strand = ATTAGCAT; value = 0.3 ln ratio
Strand = CCCCTAAT; value = 0.701 ln ratio
Strand = ATGCCCCT; value = 1.59 ln ratio

Sample 3
Target: RNA binding protein fox-1 homolog 2, RRM domain, GST-SBP tag (RBFOX2, Homo sapiens, UniProt O43251-10, residues 100-194)
Technique: RNA Bind-n-Seq
Form: RNA
Sample: in vitro
Concentration: 365 nM
Setting: natural RNA segment, single round, ends assumed
Relative to: no-protein control
Reading: higher = stronger binding
Quantity: RBNS enrichment (R)
Constant ends, left off below: GGGAGUUCUACAGUCCGACGAUC … UGGAAUUCUCGGGUGCCAA
Target sequence (chain): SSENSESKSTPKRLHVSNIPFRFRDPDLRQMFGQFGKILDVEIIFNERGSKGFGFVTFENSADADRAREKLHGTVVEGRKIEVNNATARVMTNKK
Strand = ACAGUUGGUGUCUGGGAAGGUAUUGAACGCUCCUCACCCUGUGCCCGAAGAGACCCGGAACCAAGACCAUGGCAGGGCCUGCGUGGAAGCAGGUCCAGGCGUUUCUAGAA; value = 0.436
Strand = CCAGGGGUCACAACCUACAGGUUGAGAACUACUAUUCUAAAGGCUCAGCACUCUGCAGAGCACAGGCUGAGCUGCUCUGAGUACGGGGUGGCCUGAGUGUGGAGGACAAA; value = 0.324
Strand = CUGCAUACCCACCGCCCAGCUUCUCCCUGAGGGCCCACCAGCCUGUGCUGUACACCCCGUUAGUCCCUGAUCCCAACCUUCUCCCUCCUGCCAGCACACCGAUGCACACA; value = 3.29
Strand = ACAUCCUGGGGAAAUCGAGCAGAAAAACUGCACAGUUAUGUCAAAGGGCAAAAGUUUAGAAAUCCACAUACAUUGGUUCUUAGAUCUCUUAGGAAAUCCUGCACCGGUUU; value = 0.517
Strand = UCCUCUUGUGUUGGCAAGAUGGCUGCCAACUCUUGGCAAUUCAUACAUCCUUGUUUCUGUCUGGUAGAGAGUUUGCUUCUCAAAUGGAGCAAACAAAUUUGAUUAUUUUU; value = 0.784
Strand = UCAGUGUUAGCCCAAAGAUUCUGAGGUUUAGAAAAAAAUUAUGUAAGAUCUGAACAUCAGUUUGCAGACAAAAUUAAAUUAGAGCUUUAUUUUAUUUGGAGAAGAGGGAU; value = 1.18
Strand = ACCACCCCUCGCCUCCCCUUCUCCAGGACUAUGAGCUCUUCGUGGAGGCUGUGGAACAAAACACGCUGCAGGAGUUCCUGAAGCUGGCUUGAGUCAAGCCUGUCCAGAGU; value = 0.348
Strand = UUAAGAGACGGGGCAAAUGUGGAUCCAAGAAACCAGGGCCAUGACCGGGUCCACUGUGGAGCAGCCAUCUAUCUACCUGACUCCUGAGCCAGGCUGCCGUGGUGUCAUUU; value = 0.298
Strand = AGGGGUACAGAAAUUAUCCCCCUACAACCCCAGCCUCCUGAGGGCUCCAUGCUGAAGGCUCCCAUUUUCAGUUCCCUCCUGCCCAGGACUGCAUUGUUUUCUAGCCCCGA; value = 0.613
Strand = AAAAAAAUUGCAAGUGAUUAGAUUCAAUUAUUGAUUUAUUUACUUCUACUUUGUAUCCAUGACUUCUCCGAAUCAAACCACGGUAUAUGUUGUGACAAUAUCUAUGGCCA; value = 0.327
Strand = AUUUUAAAGAUUUAUAUAAUGCUUUUGAACACUCUGAGAAAGGGUUGUUUUUUUUCAUUGGGUUAAUCUGUAUAUCUGAAUUCUUGAAGCUUUUCUCUAGCCUACAGUAG; value = 0.323
Strand = CCCAGACCGUGUGACACAGCACAGCCUCCUUAAUGACACGUUGCCAUGUAACGCACCUGUAACUUAUCAGCCCAUGUUCAUUACGUAACUUUGUACUGUACGUCACAGUG; value = 0.263

Sample 4
Target: Interferon regulatory factor 7, full length, phosphomimetic (IRF7, Homo sapiens, UniProt Q92985, residues 1-503, S471D/S472D/S475D/S476D/S477D/S483D/S484D/S487D)
Technique: protein-binding microarray
Form: double-stranded DNA, one strand shown
Sample: in vitro
Concentration: 2200 nM top
Setting: 60-bp whole probe
Added: salmon DNA 0.4 mg/ml
Relative to: random background probes
Reading: higher = stronger binding
Quantity: fitted relative affinity
Constant ends, left off below: GCCTAGCAC … GTCTTGATTCGCTTGACGCTGCTG
Residues (chain): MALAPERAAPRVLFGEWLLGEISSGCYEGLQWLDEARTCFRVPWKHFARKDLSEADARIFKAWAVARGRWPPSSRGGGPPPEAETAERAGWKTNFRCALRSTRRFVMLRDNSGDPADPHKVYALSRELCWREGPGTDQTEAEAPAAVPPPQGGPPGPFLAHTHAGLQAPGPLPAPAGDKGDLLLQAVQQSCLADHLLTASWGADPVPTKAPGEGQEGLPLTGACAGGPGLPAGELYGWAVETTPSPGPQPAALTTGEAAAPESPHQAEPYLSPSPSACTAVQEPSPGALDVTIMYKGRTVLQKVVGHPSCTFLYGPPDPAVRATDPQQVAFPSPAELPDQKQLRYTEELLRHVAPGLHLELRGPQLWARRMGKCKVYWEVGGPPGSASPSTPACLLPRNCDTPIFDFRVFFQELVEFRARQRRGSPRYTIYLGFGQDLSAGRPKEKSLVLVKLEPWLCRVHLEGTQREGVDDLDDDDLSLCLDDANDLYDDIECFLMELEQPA
Strand = TCAAATTTTAATAACACACTGTGCTAG; value = -0.559 z-score
Strand = TTAGATCTCCGTCTCGATTAGTGCTAG; value = 0.843 z-score
Strand = GACGGACAGGGGACTGGGGACGTGCTA; value = -0.64 z-score
Strand = TCAAGTTTCTATTTTCTACTGTGCTAG; value = 5.01 z-score
Strand = CTCTTTGTTTCACTTCCTGGTGTGCTA; value = 5 z-score
Strand = TTAGAACTGTGTATCGATTAGTGCTAG; value = 0.0437 z-score
Strand = TACGGTTTCGGACTGGGGACGTGCTAG; value = 4.04 z-score
Strand = CTCACCCAGTCCAGACACCCGTGCTAG; value = 0.0691 z-score
Strand = TTAGGTTTCGACACTGGGTGAGTGCTA; value = 2.16 z-score
Strand = GACGGACTGCTACTGCTGAAGTGCTAG; value = -0.205 z-score
Strand = GTGATTTCAGTTTTCTTTTCGTGCTAG; value = 5.84 z-score
Strand = AAACAAGTCAATGGCCTTTCGTGCTAG; value = -0.0129 z-score
Strand = TTAGGTTTCGGGTATCGGTTTGTGCTA; value = 7.19 z-score
Strand = TCATTTCTAATTTACTTACTGTGCTAG; value = 1.85 z-score
Strand = TTAGATATCAGACTGGATTGGTGCTAG; value = 0.0854 z-score
Strand = TTAGGTATCCTTCTCCTTGAGTGCTAG; value = 1.01 z-score
Strand = GACGATATCGGGTTTCGAGTCGTGCTA; value = 3.21 z-score
Strand = TTAGGTAGCGACTTTCGGTTAGTGCTA; value = 5.39 z-score
Strand = GAGGGACTGGACTTTCGGGACGTGCTA; value = 1.75 z-score
Strand = GACGATATCGGGACTGGAGTCGTGCTA; value = 0.0163 z-score
Strand = TCAAATACAAGTTTCTCACTGTGCTAG; value = 0.527 z-score
Strand = TCACCATTAAATTTTAAACTGTGCTAG; value = -4.84e-05 z-score
Strand = GACGATCCCAGACTGGAGACGTGCTAG; value = -0.365 z-score
Strand = TTAGATATCGGACTGGGTTAGTGCTAG; value = 0.129 z-score
Strand = GTGTTTCTCAGTTTATTTATGTGCTAG; value = 2.29 z-score

A few entries again (sample 2):
Strand = ATGAGGAT; value = 1.33 ln ratio
Strand = ATGCATAA; value = 0.479 ln ratio
Strand = ATGCCACA; value = 1.2 ln ratio
Strand = GGAGTAAT; value = 0.235 ln ratio
Strand = CCCCTAAT; value = 0.701 ln ratio
Strand = ATTAGCAT; value = 0.3 ln ratio
